Experimental data gathered from unrelated publications.
Lines come from different studies, so protocols differ. Several values in a cell are separate wells, animals, samples, runs or records.
Cell line: HeLa

SMILES | assay | conditions | scale | endpoint | value
CN1CC(COc2cccc3c(NCc4ccccc4)cc(Cl)nc23)OC1=O (centres unmarked) | splicing reporter, refers to: GLA | 10 µM, 18 h |  | GFP/RFP ratio | 3.91
CCCC[N+]1=c2cc3c4cc2[O][Mn-2]1(=[C]=O)(=[C]=O)(=[C]=O)[n+]1ccc(cc1)C(=O)Nc1ccccc1NC(=O)c1cc[n+](cc1)[Mn-2](=[C]=O)(=[C]=O)(=[C]=O)([O]3)[N+]=4CCCC | MTT | 50 µM, 48 h, photolysed compound |  | viability reduction | 76%
CCCCCCCCCCCC(=O)N[C@@H](CO)C[C@@H](O)c1cccc(CCCCCC)c1 | CERT activity, HPLC-MS/MS lipidomics, refers to: sphingomyelin 20 | 1 µM, 24 h, not cell-number normalised |  | sphingomyelin level | 3980 pmol/sample and 2890 pmol/sample and 3170 pmol/sample
CCCCCCCCCCCCNC(=S)NCCCC[C@H](NS(C)(=O)=O)C(=O)N[C@H](C)C(=O)N[C@@H](CCCNC(=N)N)C(N)=O | cell growth or viability, MTT | 72 h |  | EC50 | 23.6 to 40.8 µM
N#C[Se]CCCCCCOc1ccc2c(-c3ccccc3)cc(=O)oc2c1 | cell growth or viability, SRB |  |  | GI50 | 11 µM
O=C(/C=C/c1ccccc1)Nc1cc(-c2ccnc(N3CCC(CO)CC3)c2)ccn1 | cell growth or viability, MTT | 5 µM |  | inhibition | 76.4%
C[C@@H]1CC[C@@H]([C@](O)(CNCc2ccc(F)cc2)COCc2ccccc2)[C@H](OCc2ccccc2)C1 | cell growth or viability, MTT | 10 µM, 72 h |  | inhibition | 53.7%
CC(=O)N[C@@H](CC(C)C)C(=O)N[C@H]1CSSC[C@@H](C(=O)N[C@@H](CCCNC(=N)N)C(N)=O)NC(=O)[C@H](CC(C)C)NC(=O)[C@H](CCCNC(=N)N)NC(=O)[C@H](CCCNC(=N)N)NC(=O)[C@H](CC(C)C)NC(=O)[C@H](CC(C)C)NC(=O)[C@H](CCCNC(=N)N)NC(=O)[C@@H](NC(=O)[C@H](CC(C)C)NC(C)=O)CSSC[C@@H](C(=O)N[C@@H](CCCNC(=N)N)C(N)=O)NC(=O)[C@H](CC(C)C)NC(=O)[C@H](CCCNC(=N)N)NC(=O)[C@H](CCCNC(=N)N)NC(=O)[C@H](CC(C)C)NC(=O)[C@H](CC(C)C)NC(=O)[C@H](CCCNC(=N)N)NC1=O | cell penetration, flow cytometry | 3 h |  | EC50 | 0.0617 µM
CCC(=CCc1c(O)cc2c(c1O)C(=O)CC(c1cccc(OC)c1O)O2)CC (centres unmarked) | cell growth or viability, MTT | 12.5 µM, 48 h |  | inhibition | 19.6%
CCN(C(=O)c1cc(F)ccc1Oc1nncnc1N1CCC2(C1)CN([C@H](CCCN(C)CCOC)C(C)C)C2)C(C)C | cell growth or viability | 7 days |  | GI50 | > 10 µM
CCC(=CCc1c(O)cc2c(c1O)C(=O)CC(c1cc(OC)ccc1O)O2)CC (centres unmarked) | cell growth or viability, MTT | 12.5 µM, 48 h |  | inhibition | 15%
COc1ccc(COC[C@](O)(CNCc2ccccc2)[C@@H]2CC[C@@H](C)C[C@H]2OCc2ccc(OC)cc2)cc1 | cell growth or viability, MTT | 30 µM, 72 h |  | inhibition | 98.6%
COc1ccc(C2CC(=O)c3c(cc(O)c(CC=C(C)C)c3O)O2)cc1 (centres unmarked) | cell growth or viability, MTT | 100 µM, 48 h |  | inhibition | 22%
CCCCCCCCCCCCCC(=S)NCCCC[C@H](NS(C)(=O)=O)C(=O)N[C@H](C)C(=O)N[C@@H](CCCNC(=N)N)C(N)=O | cell growth or viability, MTT | 72 h |  | EC50 | 18.8 to 32.1 µM
CC(C)(C)c1ccc([C@H](O)C[C@H](CO)NC(=O)CCCCCOc2ccc3ccccc3c2)cc1 | CERT activity, HPLC-MS/MS lipidomics, refers to: lactosylceramide 24:1 | 1 µM, 24 h, not cell-number normalised |  | lactosylceramide level | 5910 pmol/sample and 3180 pmol/sample and 6200 pmol/sample
CCC(=CCc1c(O)cc2c(c1O)C(=O)CC(c1ccc(O)c(OC)c1)O2)CC (centres unmarked) | cell growth or viability, MTT | 25 µM, 48 h |  | inhibition | 78.5%
Cc1ccc2c(Cl)cc(Cl)c([O-])c2n1.Cc1ccc2c(Cl)cc(Cl)c([O-])c2n1.Cc1ccnc(-c2cc(C)ccn2)c1.[Co+2] | cell growth or viability, MTT | 48 h |  | IC50 | 4.11 µM
CCCCCCc1cccc(C(O)CC(CO)NC(=O)CCCCCCCCCCNC(C)=O)c1 (centres unmarked) | CERT activity, HPLC-MS/MS lipidomics, refers to: sphingomyelin 16 | 1 µM, 24 h, not cell-number normalised |  | sphingomyelin level | 469000 pmol/sample and 597000 pmol/sample and 595000 pmol/sample
CCC(=CCc1c(O)cc2c(c1O)C(=O)CC(c1cccc(O)c1)O2)CC (centres unmarked) | cell growth or viability, MTT | 3.125 µM, 48 h |  | inhibition | 4.12%

SMILES | assay | conditions | scale | endpoint | value
O=C(CCCCCOc1ccc2ccccc2c1)N[C@@H](CO)C[C@@H](O)c1ccc(-c2ccccc2)cc1 | CERT activity, HPLC-MS/MS lipidomics, refers to: hexosylceramide 24:1 | 1 µM, 24 h, not cell-number normalised |  | hexosylceramide level | 18500 pmol/sample and 20200 pmol/sample and 19500 pmol/sample
CCC(=CCc1c(O)cc2c(c1O)C(=O)CC(c1ccc(OC)c(O)c1)O2)CC (centres unmarked) | cell growth or viability, MTT | 12.5 µM, 48 h |  | inhibition | 33.8%
O=C1NCC(COc2cccc3c(NCc4ccsc4)nc(Cl)nc23)O1 (centres unmarked) | splicing reporter, refers to: GLA | 10 µM, 18 h |  | GFP/RFP ratio | 3.38
O=[C]=[Mn-2]12(=[C]=O)(=[C]=O)[O]c3cc4c(cc3=[N+]1CCc1ccccc1)[O][Mn-2](=[C]=O)(=[C]=O)(=[C]=O)([N+]=4CCc1ccccc1)[n+]1ccc(cc1)C(=O)Oc1ccccc1OC(=O)c1cc[n+]2cc1 | MTT | 50 µM, 48 h, photolysed compound |  | viability reduction | 55%
COc1ccc(COC[C@](O)(CNCc2ccc(F)cc2)[C@@H]2CC[C@@H](C)C[C@H]2OCc2ccc(OC)cc2)cc1 | cell growth or viability, MTT | 10 µM, 72 h |  | inhibition | 97.2%
O=C1NCC(COc2cccc3c(NCc4ccccc4)nc(Cl)nc23)O1 (centres unmarked) | splicing reporter, refers to: GLA | 10 µM, 18 h |  | GFP/RFP ratio | 3.54
CCC(=CCc1c(O)cc2c(c1O)C(=O)CC(c1c(O)cccc1OC)O2)CC (centres unmarked) | cell growth or viability, MTT | 1.563 µM, 48 h |  | inhibition | 2.73%
COc1cccc(CNC[C@@](O)(COCc2ccccc2)[C@@H]2CC[C@@H](C)C[C@H]2OCc2ccccc2)c1 | cell growth or viability, MTT | 30 µM, 72 h |  | inhibition | 101%
CN(C)CCOc1cc(NC(=O)c2cccc(C(=O)Nc3cc(OCCN(C)C)c4ccccc4n3)n2)nc2ccccc12 | cell viability, CellTiter-Glo | 72 h | relative to: IC50 HeLa over WI-38 | selectivity ratio | 1
COc1cccc2c1cc1c3c(cc4c(c32)OCO4)[C@@H]2c3c4c5c(cc6c(c5c5cccc(OC)c35)OCO6)CCN4[C@@H]2N1C (racemic) | cytotoxicity, MTT | 50 µg/mL, 48 h |  | inhibition | < 50%
COc1ccccc1CNC[C@@](O)(COCc1ccccc1)[C@@H]1CC[C@@H](C)C[C@H]1OCc1ccccc1 | cell growth or viability, MTT | 10 µM, 72 h |  | inhibition | 95.6%
O=[C]=[Mn-2]12(=[C]=O)(=[C]=O)[O]c3cc4c(cc3=[N+]1CCc1ccccc1)[O][Mn-2](=[C]=O)(=[C]=O)(=[C]=O)([N+]=4CCc1ccccc1)[n+]1ccc(cc1)C(=O)Nc1ccccc1NC(=O)c1cc[n+]2cc1 | MTT | 50 µM, 48 h, photolysed compound |  | viability reduction | 96%
C[C@@H]1CC[C@@H]([C@@](O)(CNCc2cccc(F)c2)COCc2ccccc2)[C@H](OCc2ccccc2)C1 | cell growth or viability, MTT | 10 µM, 72 h |  | inhibition | 98.7%
CCC(=CCc1c(O)cc2c(c1O)C(=O)CC(c1ccc(OC)cc1O)O2)CC (centres unmarked) | cell growth or viability, MTT | 6.25 µM, 48 h |  | inhibition | 13%
Cc1cc(C)c(CNC(=O)c2c(C)n(C(C)C3CCC(NC4(C)COC4)CC3)c3ccccc23)c(=O)[nH]1 (centres unmarked) | histone methylation reduction, AlphaLISA, refers to: H3K27me3 | 72 h |  | EC50 | 0.0084 µM
C[C@@H]1CC[C@@H]([C@](O)(CNCc2ccccc2F)COCc2ccccc2)[C@H](OCc2ccccc2)C1 | cell growth or viability, MTT | 30 µM, 72 h |  | inhibition | 98.9%
CCCCCCc1cccc([C@H](O)C[C@H](CO)NC(=O)CCCCCOc2ccc3ccccc3c2)c1 | CERT activity, HPLC-MS/MS lipidomics, refers to: ceramide 24 | 1 µM, 24 h, not cell-number normalised |  | ceramide level | 14200 pmol/sample and 14100 pmol/sample and 9370 pmol/sample
C[C@@H]1CC[C@@H]([C@@](O)(COCc2ccccc2)Cn2cnc3ccccc32)[C@H](OCc2ccccc2)C1 | cell growth or viability, MTT | 30 µM, 72 h |  | inhibition | 99.1%
Cc1c(Cl)c(=O)oc2cc(OCCCCCCSC#N)ccc12 | cell growth or viability, SRB |  |  | GI50 | 17 µM

For quick reference, copied from above:
SMILES | assay | conditions | scale | endpoint | value
C[C@@H]1CC[C@@H]([C@](O)(CNCc2ccc(F)cc2)COCc2ccccc2)[C@H](OCc2ccccc2)C1 | cell growth or viability, MTT | 10 µM, 72 h |  | inhibition | 53.7%
CC(=O)N[C@@H](CC(C)C)C(=O)N[C@H]1CSSC[C@@H](C(=O)N[C@@H](CCCNC(=N)N)C(N)=O)NC(=O)[C@H](CC(C)C)NC(=O)[C@H](CCCNC(=N)N)NC(=O)[C@H](CCCNC(=N)N)NC(=O)[C@H](CC(C)C)NC(=O)[C@H](CC(C)C)NC(=O)[C@H](CCCNC(=N)N)NC(=O)[C@@H](NC(=O)[C@H](CC(C)C)NC(C)=O)CSSC[C@@H](C(=O)N[C@@H](CCCNC(=N)N)C(N)=O)NC(=O)[C@H](CC(C)C)NC(=O)[C@H](CCCNC(=N)N)NC(=O)[C@H](CCCNC(=N)N)NC(=O)[C@H](CC(C)C)NC(=O)[C@H](CC(C)C)NC(=O)[C@H](CCCNC(=N)N)NC1=O | cell penetration, flow cytometry | 3 h |  | EC50 | 0.0617 µM
CCC(=CCc1c(O)cc2c(c1O)C(=O)CC(c1cccc(OC)c1O)O2)CC (centres unmarked) | cell growth or viability, MTT | 12.5 µM, 48 h |  | inhibition | 19.6%
CCN(C(=O)c1cc(F)ccc1Oc1nncnc1N1CCC2(C1)CN([C@H](CCCN(C)CCOC)C(C)C)C2)C(C)C | cell growth or viability | 7 days |  | GI50 | > 10 µM
CCC(=CCc1c(O)cc2c(c1O)C(=O)CC(c1cc(OC)ccc1O)O2)CC (centres unmarked) | cell growth or viability, MTT | 12.5 µM, 48 h |  | inhibition | 15%
COc1ccc(COC[C@](O)(CNCc2ccccc2)[C@@H]2CC[C@@H](C)C[C@H]2OCc2ccc(OC)cc2)cc1 | cell growth or viability, MTT | 30 µM, 72 h |  | inhibition | 98.6%
